Measured values gathered from unrelated publications.
Protocols differ between the studies behind these lines. Several values in a cell are separate wells, animals, samples, runs or records. ± marks the error that the study gave.
Target: Cannabinoid receptor 2 (CNR2, Homo sapiens, UniProt P34972)

Compound	assay	test system	conditions	scale	quantity	value
CCc1nnc(-c2c(OC)cc(-c3cnc4cc(-c5cnn(C)c5)ccn34)cc2OC)o1	specific binding, agonist, radioligand binding		10 µM	relative to: control specific binding	inhibition	-2%
CCOC(=O)[C@](CC)(CCCSCCOCCOCCNc1ccc([N+](=O)[O-])c2nonc12)NC(=O)c1ccc(C2CC2)c(Cc2ccc(F)cc2)n1	radioligand binding			relative to: CB1 over CB2 (human)	Ki ratio	68
Cc1cc(-c2ccc3ccccc3c2)nnc1NCCN1CCN(C)CC1	antagonist		10000 nM	relative to: control	activity	0%
COC(=O)[C@@H](NC(=O)c1nn(Cc2ccc(F)cc2)c2cc(OCCCCNC(=N)N)ccc12)C(C)(C)C	GTPase			relative to: FUB	Gi GTP turnover maximum	61%
CCOC(=O)[C@](CC)(CCCSCCOCCOCCNC(=O)c1ccc(C(=O)[O-])c(C2=C3C=CC(=[N+](C)C)C=C3[Si](C)(C)c3cc(N(C)C)ccc32)c1)NC(=O)c1ccc(C2CC2)c(Cc2ccc(F)cc2)n1	dissociation rate				koff	0.0045 ± 0.00133 s⁻¹
CCCCCn1cc(C(=O)c2cccc3c2CC(C)(C)C3)c2ccccc21	cAMP inhibition, agonist, CAMYEL BRET biosensor		together with: forskolin 10 µM	relative to: reference agonist at wild type	Emax	61.8 ± 3%
CCOC(=O)[C@](CC)(CCCSCCOCCOCCNC(=O)c1ccc(-c2c3ccc(=N)c(S(=O)(=O)O)c-3oc3c(S(=O)(=O)O)c(N)ccc23)c(C(=O)O)c1)NC(=O)c1ccc(C2CC2)c(Cc2ccc(F)cc2)n1	radioligand binding			relative to: CB1 over CB2 (human)	Ki ratio	7
C/C(=N\OCCCN1CCCCC1)c1ccc(C(F)(F)F)cc1	agonist, cAMP		10 µM		activation	-36.4%
Cc1ccc2c(n1)c(-c1cccc(S(C)(=O)=O)c1)c(C)n2C/C(F)=C/CN	ligand displacement, radioligand		10 µM		inhibition	10%
CCN(CC)CCOc1ccc(-c2nnn(Cc3ccc(OC)cc3)c2N)cc1	radioligand binding	CHO	10 µM, human, together with: radioligand 10000 nM		inhibition	-4.61%
Cc1cc(Nc2nc(C[C@@]3(C(=O)O)CCN(Cc4cccc(Cl)c4F)[C@H](C)C3)cc(C)c2F)[nH]n1	inhibitor		10 µM		inhibition	-6.12%
CCOC(=O)C(CC)(CC)NC(=O)c1ccc(C2CC2)c(Cc2ccc(F)cc2)n1	radioligand binding			relative to: CB1 over CB2 (human)	Ki ratio	27
C[C@]12CC[C@H]3[C@@H](CC[C@H]4C[C@H](O)CC[C@@]43C)[C@@H]1CC(=O)C2	cAMP level, agonist		concentration not given		activity	inactive
O=C(O)c1ccc(-c2nc(-c3ccccc3Cl)c3sccn23)cc1	radioligand binding, safety screen panel		10 µM	relative to: control	specific binding	109% and 106%

A few entries again:
Compound	assay	test system	conditions	scale	quantity	value
C[C@]12CC[C@H]3[C@@H](CC[C@H]4C[C@H](O)CC[C@@]43C)[C@@H]1CC(=O)C2	cAMP level, agonist		concentration not given		activity	inactive
